Measured values of several laboratories.
Target: NUAK family SNF1-like kinase 2 (NUAK2, Homo sapiens, UniProt Q9H093)

`C=CC(=O)N1CCc2ccc(-n3c(=O)ccc4cnc5ccc(-c6cnn(C)c6)cc5c43)cc21` gave a remaining binding of 68% (KINOMEscan; 1 µM; reference: DMSO control).
`CNC1C[S+]2CC[S+]3CC[S+](C1)[Ru-4]321([N]=C=S)[n]2c3ccc(OC)cc3c3c4c(c5cc(F)c[n+]1c5c32)C(=O)NC4=O` (stereo not drawn) gave a remaining binding of 80% (KinomeScan; 0.1 µM; reference: untreated).
The remaining binding of `CN1CCN(Cc2ccc(NC(=O)c3cccc(C#Cc4cnc(N)c5ncccc45)c3)cc2C(F)(F)F)CC1` is reported as 74% (cell-free assay, competition with immobilised ligand; 50 nM).
For `CCN1CCN(Cc2ccc(C(=O)Nc3ccc(C)c(NCc4cnc5[nH]ccc5c4OC)c3)cc2C(F)(F)F)CC1`, the remaining binding was 54% (binding, competition with immobilised ligand; 1 µM).
`C=C1CCCCCCCCCC(CO)C1=O` (stereo not drawn) has a remaining binding of 82% (cell-free assay, competition with immobilised ligand; 10 µM).
`C=CC(=O)Nc1cc(-c2nn(C3CCN(CCNC(=O)[C@H](C)CCC45CC6CC(CC(C6)C4)C5)CC3)c3ncnc(N)c23)ccc1Oc1ccccc1` gave an inhibition of 3.9% (inhibitor, KiNativ profiling; biochemical; 2 µM).
The inhibition of `CCn1cc(C(=O)O)c(=O)c2c(N)c(F)c(NC3CCCCC3)cc21` is reported as 0.7% (kinase activity; 0.1 µM, together with: ATP at Km).
With `COc1cc(Nc2nccc(-c3cnn4nc(OC)ccc34)n2)cc(C(F)(F)F)c1` the remaining binding was 83% (binding, competition with immobilised ligand; 1 µM).
`NC(=O)C[C@H]1CCc2sc3ncnc(O[C@H]4CC[C@H](N5CCOCC5)CC4)c3c21` gave an inhibition of -2% (enzyme activity, inhibitor; 10 µM).
For `C=CC(=O)N1Cc2nc(-c3cc(-c4cc(Cl)cnc4Cl)c(F)cc3F)n(-c3ccncn3)c2C1`, the inhibition was 3.1% (cell-free assay, inhibitor; 1 µM).
The inhibition of `CN1CC[C@@H](COc2cnc(C#N)cc2-c2ccn3nc(NC(=O)C4CC4)cc3c2)C1` is reported as -4% (enzyme activity, inhibitor; 1 µM).
For `CNC(=O)C[C@H](Cc1ccc(C#N)cc1)NC(=O)c1cc(-c2ccc(CN[C@H](C)c3ccc(C)cc3)o2)ccc1Cl`, “activity vs control” read 97% (enzyme activity, inhibitor; 1 µM).
For `COc1c(Cl)cccc1Nc1c(-c2ccncc2C#C[C@@]2(C)CCCN2C(=O)/C=C/CN(C)C)[nH]c2c1C(=O)NCC2`, the remaining binding was 87% (binding, competition with immobilised ligand; 3 µM).
The remaining binding of `CC(C)=CC1OC(C)(C)C2C=C3C(=O)C(Cl)=CC(O)C3C3C(O)C4OC4C(=O)C132` (stereo not drawn) is reported as 3.3% (cell-free assay, competition with immobilised ligand; 10 µM).
`CN1CCN(Cc2ccc(-c3ccc(CO[C@H]4CCC[C@@H]4NC(=O)c4cc(-c5cnn(C)c5)cnc4N)cc3)cc2)CC1` gave an inhibition of -2% (enzyme activity, inhibitor; 0.1 µM).

For quick reference, copied from above:
`C=C1CCCCCCCCCC(CO)C1=O` (stereo not drawn) has a remaining binding of 82% (cell-free assay, competition with immobilised ligand; 10 µM).
`C=CC(=O)Nc1cc(-c2nn(C3CCN(CCNC(=O)[C@H](C)CCC45CC6CC(CC(C6)C4)C5)CC3)c3ncnc(N)c23)ccc1Oc1ccccc1` gave an inhibition of 3.9% (inhibitor, KiNativ profiling; biochemical; 2 µM).
